# Published values from different studies.
# Protocols differ between the studies behind these lines. ± marks the error that the study gave.
# Organism: herpes simplex virus 1
Structure (SMILES),assay,test system,EC50
CC(C)OP(=O)(CO[C@H](CF)Cn1cnc(N)nc1=O)OC(C)C,cytopathic effect,"HEL, KOS, TK-deficient, acyclovir-resistant",32.5 ± 12.5 µM
CCCCCCCCCCCCCCCCOCCCOP(=O)(O)COCCn1cnc2c(=O)[nH]c(=O)[nH]c21,cytopathic effect,"HEL, KOS TK- acyclovir-resistant",2 µM
Cc1ccc(S(=O)(=O)N2C(=O)CSC2c2cccc([N+](=O)[O-])c2)cc1 (stereo not shown),viral cytopathicity,"HEL, KOS TK-deficient acyclovir-resistant",> 100 µM
O=c1[nH]c(=O)c2ncn(C[C@@H](CF)OCP(=O)(O)O)c2[nH]1,cytopathic effect,"HEL, KOS TK- acyclovir-resistant",> 329 µM
O=c1[nH]c(=O)n([C@H]2C[C@H](O)[C@@H](CO)O2)cc1/C=C/Br,cytopathic effect,"HEL, KOS, TK-deficient, acyclovir-resistant",1.6 ± 0.6 µM
O=c1[nH]c(=O)c2ncn(CCOCP(=O)(O)O)c2[nH]1,cytopathic effect,"HEL, KOS TK- acyclovir-resistant",23.7 ± 14 µM
Nc1ncn(CC(OCP(=O)(O)O)C(F)(F)F)c(=O)n1 (stereo not shown),cytopathic effect,"HEL, KOS, TK-deficient, acyclovir-resistant",> 100 µM
NC(=O)c1ncn([C@@H]2O[C@H](CO)[C@@H](O)[C@H]2O)n1,viral replication,"HEL cells, KOS ACV-resistant TK-deficient",2 µM
Cc1ccc(S(=O)(=O)N2C(=O)CSC2c2ccccc2[N+](=O)[O-])cc1 (stereo not shown),viral cytopathicity,"HEL, KOS",> 100 µM
Nc1ccn(C[C@@H](CO)OCP(=O)(O)O)c(=O)n1,viral replication,"HEL cells, KOS ACV-resistant TK-deficient",> 250 µM
O=c1[nH]c(=O)c2ncn(CC(CO)OCP(=O)(O)O)c2[nH]1 (racemic),cytopathic effect,"HEL, KOS TK- acyclovir-resistant",38 µM
Cc1ccc(S(=O)(=O)N2C(=O)CSC2c2cccc(Br)c2)cc1 (stereo not shown),viral cytopathicity,"HEL, KOS",> 100 µM
Nc1nc2c(ncn2COCCO)c(=O)[nH]1,cytopathic effect,"HEL, KOS, TK-deficient, acyclovir-resistant",48.9 ± 57 µM
Cc1ccc(S(=O)(=O)N2C(=O)CSC2c2ccc(O)cc2)cc1 (stereo not shown),viral cytopathicity,"HEL, KOS TK-deficient acyclovir-resistant",> 100 µM
Nc1ccn(C[C@@H](CO)OCP(=O)(O)O)c(=O)n1,cytopathic effect,"HEL, KOS, TK-deficient, acyclovir-resistant",1.3 ± 0.3 µM
C[C@H](NP(=O)(OCCOCn1cnc2c(=O)[nH]c(N)nc21)Oc1cccc2ccccc12)C(=O)OC(C)(C)C (stereo partly shown),cytopathic effect,"HEL fibroblasts, KOS",≥ 50 µM

# A few entries again:
Structure (SMILES),assay,test system,EC50
CCCCCCCCCCCCCCCCOCCCOP(=O)(O)COCCn1cnc2c(=O)[nH]c(=O)[nH]c21,cytopathic effect,"HEL, KOS TK- acyclovir-resistant",2 µM
Cc1ccc(S(=O)(=O)N2C(=O)CSC2c2cccc([N+](=O)[O-])c2)cc1 (stereo not shown),viral cytopathicity,"HEL, KOS TK-deficient acyclovir-resistant",> 100 µM
